Measurements of several laboratories.
Lines come from different studies, so protocols differ. Values joined by “and” are separate records of one study, mostly repeats; a detail may differ.

For `colistin`, the tetracycline MIC was 56.2 µM (Escherichia coli; checkerboard; tetracycline-resistant (pBR322); 0.0625 µM, with: tetracycline).
`CTCATACAGT`: “log2 fold change” 1.85 (Salmonella enterica Typhimurium; RNA-seq, refers to: udg mRNA; peptide, SL1344; 5 µM, 15 min; reference: water control).
For `maraviroc`, “viral load decrease” read 5.2 fold (HIV-1 ADA; viral replication; HIV-infected mice, plasma; ip, 120 mg/kg twice daily, 3 weeks post-infection; reference: untreated HIV-infected mice).
For `Polymyxin B`, the membrane depolarisation was 496 a.u. and 676 a.u. and 564 a.u. (Staphylococcus aureus; DiSC3(5) fluorescence; concentration not given, 66 min; higher = more depolarisation).
Under “normalised SPR binding response”, `QGRWDHETIV` is recorded as 56.5 normalised RU (human SCRIB PDZ3-4 tandem (MBP fusion); surface plasmon resonance; peptide; concentration not given; higher = stronger binding).
`polymyxin B` — result for “time to eradication”: 4 to 5 h (Escherichia coli; ATCC BAA-2452; 1 × MIC).
`Peginesatide` gave a phosphorylation level of 4.6 fold (UT7/EPO; tyrosine phosphorylation, LC-MS/MS phosphoproteomics, GluC, refers to: SPRY4 tyrosine 52; 10 nM, 15 min, with: 10 U/mL EPO; reference: vehicle).
For `milbemycin oxime`, the OD600 was 0.312 and 0.245 and 0.398 (Saccharomyces cerevisiae; cell growth; Pdr5 deleted, Cdr1 overexpressed; 2^-6.644 µg/mL, with: fluconazole 10 µg/mL).
Under “log2 fold change”, `CTCATTGTCT` is recorded as 2.51 (Salmonella enterica Typhimurium; RNA-seq, refers to: SL1344_3728 transcript; peptide, SL1344; 5 µM, 15 min; reference: untreated control).
`gentamicin` has a viable count of 6.5 log CFU/mL (Escherichia coli; time-kill; 1 x MIC, 0 min).
The MIC of `colistin` is reported as 1.5 µg/mL (Acinetobacter baumannii; clinical strain 2E8).
For `LVHYTHCGSLGV`, “EBV DNA copy number” read 0 copies (Epstein-Barr virus; BamHI-W qPCR; peptide, B-NDG humanized mouse, EBV-infected, peripheral blood; 20 mg/kg, day 0).
`epoetin alfa` has a mRNA level of 41.4 fold (UT7/EPO; microarray, refers to: SOCS3 (probe 206359_at); 5 U/mL, 90 min, with: SCF 10 nM; reference: vehicle).
`CTGTTACTCT` — result for “log2 fold change”: 1.64 (Salmonella enterica Typhimurium; RNA-seq, refers to: SL1344_3728 transcript; peptide, SL1344; 5 µM, 15 min; reference: untreated control).
With `colistin` the MIC was 8 µg/mL (Enterobacter cloacae; broth microdilution; clinical isolate RKI-No 1026/14-1).
`CTCATACTGA` — result for “log2 fold change”: -1.95 (Salmonella enterica Typhimurium; RNA-seq, refers to: SL1344_3670 mRNA; peptide, SL1344; 5 µM, 15 min; reference: water control).
`GSGAGSETKM` gave a binding intensity of -0.0331 (human SCRIB PDZ3-4 tandem (MBP fusion); automated holdup; peptide, crude extract; concentration not given, corrected by standard peak, unit not given; reference: biotin control resin, higher = stronger binding).

For quick reference, copied from above:
`epoetin alfa` has a mRNA level of 41.4 fold (UT7/EPO; microarray, refers to: SOCS3 (probe 206359_at); 5 U/mL, 90 min, with: SCF 10 nM; reference: vehicle).
`CTGTTACTCT` — result for “log2 fold change”: 1.64 (Salmonella enterica Typhimurium; RNA-seq, refers to: SL1344_3728 transcript; peptide, SL1344; 5 µM, 15 min; reference: untreated control).
